Assay results pooled from the literature.
Parts stem from different laboratories: compare values within a part only.

Set 1
Target: Sal-like protein 4, full length isoform B (SALL4, Homo sapiens, UniProt Q9UJQ4-2, residues 1-616)
Technique: universal PBM
Form: double-stranded DNA, one strand shown
Medium: in vitro
Tested at: not given
Notes: 8-mer, flanks averaged, mean of replicates
Direction: higher = stronger binding
Target sequence (chain): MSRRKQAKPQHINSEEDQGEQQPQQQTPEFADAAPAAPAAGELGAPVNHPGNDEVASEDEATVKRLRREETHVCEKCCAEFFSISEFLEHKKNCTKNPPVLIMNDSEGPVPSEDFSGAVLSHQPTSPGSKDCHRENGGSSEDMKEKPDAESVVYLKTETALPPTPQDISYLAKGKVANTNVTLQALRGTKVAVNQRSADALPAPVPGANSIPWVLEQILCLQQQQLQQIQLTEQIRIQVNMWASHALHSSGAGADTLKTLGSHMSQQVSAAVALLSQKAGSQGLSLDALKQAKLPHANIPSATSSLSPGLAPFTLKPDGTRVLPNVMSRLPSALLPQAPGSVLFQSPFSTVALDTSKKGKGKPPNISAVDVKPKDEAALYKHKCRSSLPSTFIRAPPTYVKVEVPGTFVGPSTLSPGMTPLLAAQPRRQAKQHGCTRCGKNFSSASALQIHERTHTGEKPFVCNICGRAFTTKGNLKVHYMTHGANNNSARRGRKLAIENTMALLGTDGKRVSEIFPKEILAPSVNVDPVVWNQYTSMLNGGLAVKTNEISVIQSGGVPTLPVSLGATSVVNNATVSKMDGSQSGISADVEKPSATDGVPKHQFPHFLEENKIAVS
`AGACTCGC` has an E-score of -0.247.
With `AGTCCTGG` the E-score was -0.314.
`CGCTAGGA` gave an E-score of -0.125.
With `CGACGCGA` the E-score was -0.319.
`GACAACTA` gave an E-score of 0.11.
With `CCTGTCCC` the E-score was -0.119.
With `TATCGCGA` the E-score was 0.00319.
`AACTCAGC` has an E-score of 0.0353.
The E-score of `TAGTCACA` is reported as 0.0849.
`CGCATTGA` gave an E-score of -0.0257.
`CTAGAATC` has an E-score of -0.0647.
`ACCCGCGT` gave an E-score of -0.224.
`CGATCTCC` gave an E-score of -0.234.
For `ATAACCAA`, the E-score was 0.292.
The E-score of `AACTGCCT` is reported as 0.057.
For `CATTGCGA`, the E-score was 0.115.
For `AACCAATG`, the E-score was 0.138.
`ACACTTCC` gave an E-score of -0.105.

Set 2
Target: Histone acetyltransferase KAT6A, both winged helices, GST fusion (KAT6A, Homo sapiens, UniProt Q92794, residues 1-181)
Technique: protein binding microarray
Form: double-stranded DNA, one strand shown
Medium: in vitro
Tested at: not given
Notes: 8-mer, flanks averaged, mean of 2 arrays, mostly near background
Relative to: not given
Direction: higher = stronger binding
Construct (chain): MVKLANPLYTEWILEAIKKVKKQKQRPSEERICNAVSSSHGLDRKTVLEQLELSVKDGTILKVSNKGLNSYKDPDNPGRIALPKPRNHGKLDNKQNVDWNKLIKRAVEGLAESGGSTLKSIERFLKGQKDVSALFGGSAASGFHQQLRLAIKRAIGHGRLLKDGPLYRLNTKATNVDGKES
`CTGGGTTC` has an E-score of -0.0419.
`AAACTGAG` gave an E-score of -0.0755.
For `CCTTGTAA`, the E-score was -0.00103.
`CCAAGGCA` has an E-score of -0.149.
`ACTTTTCG` has an E-score of -0.0395.
The E-score of `ACGGGTAT` is reported as 0.212.
With `AAGTCATA` the E-score was -0.13.
`CTCCTTGC` has an E-score of -0.192.
`ACGCCTGA` gave an E-score of -0.0718.
`AACACTCT` has an E-score of -0.0308.
The E-score of `AGGATACA` is reported as -0.149.
The E-score of `GTATCGCA` is reported as 0.0786.
The E-score of `CGCAGTAC` is reported as 0.0661.
`CTGCCCAC` gave an E-score of -0.266.
The E-score of `ACATTAGG` is reported as -0.175.
The E-score of `CTACAGCC` is reported as -0.121.
The E-score of `ACTAATGC` is reported as 0.0348.
`GTAGTATA` gave an E-score of 0.105.
`CCTGAACG` has an E-score of -0.0331.
`GTTGATAA` has an E-score of -0.0644.

Set 3
Target: Centromere-binding protein 1, full length, N-terminal tag (CBF1, Saccharomyces cerevisiae, UniProt P17106, residues 1-351)
Sequence of UniProt P17106 (whole entry, looked up): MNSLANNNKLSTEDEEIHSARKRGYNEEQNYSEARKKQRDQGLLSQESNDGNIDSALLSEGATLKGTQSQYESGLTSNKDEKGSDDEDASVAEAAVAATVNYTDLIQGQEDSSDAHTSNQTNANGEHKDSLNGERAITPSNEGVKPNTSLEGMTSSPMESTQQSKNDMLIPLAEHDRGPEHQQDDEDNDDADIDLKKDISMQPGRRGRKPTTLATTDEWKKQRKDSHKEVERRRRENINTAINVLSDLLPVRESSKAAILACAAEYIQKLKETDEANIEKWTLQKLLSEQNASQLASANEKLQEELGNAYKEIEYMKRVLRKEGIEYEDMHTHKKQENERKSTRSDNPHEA
Technique: protein-binding microarray
Form: double-stranded DNA, one strand shown
Medium: in vitro
Tested at: 0.8 µM
Notes: whole 60-bp probe, no competitor
Direction: higher = stronger binding
`GAATTACCAATCACGCACGCACGCAGTCGGTGCTAGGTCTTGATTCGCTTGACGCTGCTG` gave a fluorescence intensity of 1880 a.u.
`CTAACTTTAAAATGCCACGAGTCGCCCCGTACCTTCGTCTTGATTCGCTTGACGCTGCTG` has a fluorescence intensity of 555 a.u.
The fluorescence intensity of `GAATTTGGTTACCGTGACATCCTGCGAATCTCATAGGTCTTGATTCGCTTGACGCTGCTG` is reported as 953 a.u.
The fluorescence intensity of `GAAATATTATCAATTCACGTTTTGCTGCTTATTTAGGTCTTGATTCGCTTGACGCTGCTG` is reported as 590 a.u.
`CTAATATATCCAAACCACACCACACATGGTCTCTTCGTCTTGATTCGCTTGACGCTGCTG` has a fluorescence intensity of 555 a.u.
The fluorescence intensity of `TGTACGAAGCTATACGTGCGGGCTATAGTAGTTAGGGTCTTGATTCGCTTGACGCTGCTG` is reported as 522 a.u.
The fluorescence intensity of `GAAAGCCGATTTTATCACGTGAAAAACAAAAAATAGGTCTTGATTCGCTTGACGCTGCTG` is reported as 10200 a.u.
`GAATAAGCAGATGCTAACATCATGAACAAAAAATAGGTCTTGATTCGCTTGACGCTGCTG` has a fluorescence intensity of 564 a.u.
The fluorescence intensity of `GAAAAATGTATGCAGCACATGTTTTTTAGAGTGTAGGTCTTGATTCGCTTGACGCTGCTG` is reported as 728 a.u.
For `GAAAATTCATAAACAATCACCAGTATATTTATTTAGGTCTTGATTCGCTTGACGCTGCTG`, the fluorescence intensity was 529 a.u.
With `CTATGGAGTAAATGTCACGTGCCACTGTGGCCGTTCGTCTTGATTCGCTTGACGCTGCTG` the fluorescence intensity was 18400 a.u.
The fluorescence intensity of `CTAACCACCTCTTGTCACATGACCATTTTTGTTTTCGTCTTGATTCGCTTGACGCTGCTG` is reported as 9030 a.u.
`CTAGCCCGTGAGCGACTCATGACGCGCGTGTGCTTCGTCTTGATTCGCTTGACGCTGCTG` gave a fluorescence intensity of 644 a.u.
`GAAGTAGTGACTCATCTGACTATATTACCGGTTTAGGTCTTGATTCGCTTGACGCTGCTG` gave a fluorescence intensity of 580 a.u.

Set 4
Target: Ras GTPase-activating protein-binding protein 1, full length (G3BP1, Homo sapiens, UniProt Q13283)
Sequence of UniProt Q13283 (whole entry, looked up): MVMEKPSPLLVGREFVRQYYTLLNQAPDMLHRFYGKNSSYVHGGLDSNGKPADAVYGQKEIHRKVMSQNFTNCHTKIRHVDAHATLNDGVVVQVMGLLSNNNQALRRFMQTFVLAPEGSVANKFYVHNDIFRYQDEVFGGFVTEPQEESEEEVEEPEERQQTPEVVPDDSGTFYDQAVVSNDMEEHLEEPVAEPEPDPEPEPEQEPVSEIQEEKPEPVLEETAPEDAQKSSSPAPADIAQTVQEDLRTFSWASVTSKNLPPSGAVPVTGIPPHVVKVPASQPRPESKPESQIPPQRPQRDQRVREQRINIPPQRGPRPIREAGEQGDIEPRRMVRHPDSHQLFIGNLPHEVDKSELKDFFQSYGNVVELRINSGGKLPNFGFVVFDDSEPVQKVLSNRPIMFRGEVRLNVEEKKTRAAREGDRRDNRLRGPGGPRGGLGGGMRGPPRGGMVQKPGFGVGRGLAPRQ
Technique: RNA Bind-n-Seq
Form: RNA
Medium: in vitro
Tested at: 200 nM
Notes: whole 134-nt RNA, ends assumed
With: 150 mM KCl
Relative to: input library
Direction: higher = stronger binding
`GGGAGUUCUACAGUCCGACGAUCUUCAGUUGGAUGGAUUUAUUGCUCGAAACUGGGCCAAUCAAAGAUCAGCUUUGGGAAGUGCUCUUGAUCCACUUGCUGAUAAAAUACUUAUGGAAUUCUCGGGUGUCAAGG` gave a log2 enrichment of -1.42.
`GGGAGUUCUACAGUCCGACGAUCCACAGACAACACGCACCCACACGGACACAGAGGGAAGGGGUUGGGAUGGGGACAGGGUGCACAGCAGGGCGGGGUAGGACCCCAGCCCCUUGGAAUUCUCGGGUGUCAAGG` gave a log2 enrichment of 1.83.
For `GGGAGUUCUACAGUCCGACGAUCCUCAAGUCCUGUGCUACACAUCGUAUGUACCGAAUCGGUUUUUUUGGAGGUGGAAAGUAUUAUGUUACGCCGUUCGGAUCUGCACUUCCAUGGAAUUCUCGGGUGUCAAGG`, the log2 enrichment was -0.408.
For `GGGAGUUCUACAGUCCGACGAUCUGGGAGGUGGAUUUUGUUUAUUUUUUUAGCUCAUUUCCAGGGGUGGGAAUUUUUUUUUAAUAUGUGUCAUGACUAAAGUUGUUUUUGAAAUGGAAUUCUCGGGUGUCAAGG`, the log2 enrichment was 0.5.
For `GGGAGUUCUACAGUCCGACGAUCAGUCCUGUGCUACACAUCGUAUGUACCGAAUCGGUUUUUGGGGUUUUUGGUUUUUGGGAAAGUAUUAUGUUACGCCGUUCGGAUCUGCACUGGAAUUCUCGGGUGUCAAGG`, the log2 enrichment was -1.09.
With `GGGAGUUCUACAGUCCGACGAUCUGGGAGGUGGAUUUUGUUUAUUUUUUUAGCUCAUUUCCAGGGGUGGGAAUUUUUUUUUAAAAUGUGUCAUGAAUAAAGUUGUUUUUGAAAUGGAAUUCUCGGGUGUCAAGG` the log2 enrichment was 0.0296.
`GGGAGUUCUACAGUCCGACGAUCCACAGACAACACGCACCCACACAGACACAGAGGGAAGGGGUUGGGAUGGGGACACGGUGCACAGCAGGGCGGGGUAGGACCCCAGCCCCUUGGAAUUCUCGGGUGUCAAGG` gave a log2 enrichment of 1.8.
`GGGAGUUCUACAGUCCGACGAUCCAAGUCCUGUGCUACACAUCGUAUGUACCGAAUCGGGGUGGGGUUUGGGGAGGGGAAAGUAUUAUGUUACGCCGUUCGGAUCUGCACUUCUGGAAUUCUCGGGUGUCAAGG` has a log2 enrichment of 1.29.
The log2 enrichment of `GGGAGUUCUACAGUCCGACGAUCAGUCCUGUGCUACACAUCGUAUGUACCGAAUCGGGUGGGUUUUUUUGGGUUUUUGGGAAAGUAUUAUGUUACGCCGUUCGGAUCUGCACUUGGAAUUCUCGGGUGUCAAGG` is reported as -0.206.

Set 5
Target: RNA binding protein fox-1 homolog 2, RRM domain, GST-SBP tag (RBFOX2, Homo sapiens, UniProt O43251-10, residues 100-194)
Technique: RNA Bind-n-Seq
Form: RNA
Medium: in vitro
Tested at: 365 nM
Notes: natural RNA segment, single round, ends assumed
Relative to: no-protein control
Direction: higher = stronger binding
Construct (chain): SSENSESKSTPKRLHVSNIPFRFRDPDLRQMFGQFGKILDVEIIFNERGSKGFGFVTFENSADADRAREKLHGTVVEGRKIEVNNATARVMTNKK
For `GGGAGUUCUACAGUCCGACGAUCGGGUUGGGGGGGCAGGUGCCAGGCCUCACUGCUGUGAAUCUGCCACGCCUGGGGGUCCUAGAGGCUGCCCCACCCCAGUGAUUGGGUAGCAGCUCACAUCCCACCCAGCUUGGAAUUCUCGGGUGCCAA`, “RBNS enrichment (R)” read 0.373.
`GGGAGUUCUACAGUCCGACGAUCACAGUGUUGCCCAGGUCAGGAGUGUUUUCUUGGUGGUUCCAGCCCCCAUCAAUUGAACUGUUUCUGGGCUCAGUCAGACACAGACAUUCAUCUGUGUCUGACCAAAUCAGUGGAAUUCUCGGGUGCCAA` — result for “RBNS enrichment (R)”: 0.304.
`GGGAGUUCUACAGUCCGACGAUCAGGUAUAAGUUGUUUCAAGAGAGAAGAUUCACCAAAACUUGGAUCUCACCCCAUUCCAAACCCAACCCCAACCCUACUUUCCCCAUGAGACUCCCUGCCUGCUGCCAGUAUGGAAUUCUCGGGUGCCAA`: “RBNS enrichment (R)” 1.17.
Under “RBNS enrichment (R)”, `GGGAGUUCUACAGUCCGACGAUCUGUCGGCUGGAAUCCCUCAUGAGUCAAGUACUGUACCUCCCUGGCACAUGAAACUCUGGGAUCCAGUGAAGGGUCCUGCUUGGUCUUGUUUUCAGAGUCUGUAACAUUGAUGGAAUUCUCGGGUGCCAA` is recorded as 0.495.
For `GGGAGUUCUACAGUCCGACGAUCAAGAUUGAAUGUGUAUUUCUUAAAAAUACAACUUUGUGUUGUACUUUGAAAUAAAUGAUGCUUUUUUAAAAGCCUUGUUUUGUGGUUUUUUUUACACACAAGGUGUAUUUUGGAAUUCUCGGGUGCCAA`, “RBNS enrichment (R)” read 1.02.
Under “RBNS enrichment (R)”, `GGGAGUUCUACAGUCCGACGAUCUUGGGAAGAAAGGAAGAAAACAGGUCCCUCCAGGGGUGCUGCUGCCUAAGCCACCCACAUAAGUACGCUGGUGCCGUGUCACCCAUGUUGAGCCGCUCCUGAUGGCUGACUGGAAUUCUCGGGUGCCAA` is recorded as 0.3.
Under “RBNS enrichment (R)”, `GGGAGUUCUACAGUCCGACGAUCCUGGGCUGCAUCUCAGCCCCACCUGCAUGGUAUCCAGCUCCCAUCCACUUCUCACCCUUCUUUCCUCCUGACCUUGGUCAGCAGUGAUGACCUCCAACUCUCACCCACCCUGGAAUUCUCGGGUGCCAA` is recorded as 2.91.
`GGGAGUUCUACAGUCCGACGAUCUUCAGUCUGUGGGCGGGCGAUUGUCAGUGGGAUUGGUUAAAAAGCUCUUACCAGAGCUGGCUGGCCCACGGCUGGUUUUUCAAACUGAGUGAGCCCCGUAGUGAUGGCCUUGGAAUUCUCGGGUGCCAA`: “RBNS enrichment (R)” 0.405.
